Measured values pooled from the literature.
± gives the spread as reported.
Organism: Escherichia coli

| Compound | assay | test system | setting | MIC |
| --- | --- | --- | --- | --- |
| CC1C(=NNC(=O)c2ccncc2)C(C)C(c2ccc(Br)cc2)OC1c1ccc(Br)cc1 (centres unmarked) | microbial growth, broth dilution | MTCC443 | 24 h | 12.5 µg/mL |
| CC[C@H](C)[C@H](NC(=O)[C@@H](CCCNC(=N)N)NC(=O)[C@H](CCCNC(=N)N)NC(=O)[C@@H]1CCCN1C(=O)[C@@H]1CCCN1C(=O)[C@H](CCCNC(=N)N)NC(=O)[C@@H]1CCCN1C(=O)[C@H](CCCNC(=N)N)NC(=O)[C@@H]1CCCN1C(=O)[C@H](CC(C)C)NC(=O)[C@H](Cc1ccc(O)cc1)NC(=O)[C@@H]1CCCN1C(=O)[C@@H]1CCCN1C(=O)[C@H](CCCCN)NC(=O)[C@H](Cc1c[nH]c2ccccc12)NC(=O)[C@@H](N)C(C)C)C(=O)N[C@@H](Cc1ccc(O)cc1)C(=O)N[C@@H](CC(N)=O)C(=O)N[C@H](CCCNC(=N)N)C(N)=O | broth microdilution | BW25113 | 18 h | 8 µg/mL |
| Cc1ccc2nc(C)c(C(=O)NCc3cccs3)n2c1 | broth microdilution | 3 |  | > 64 µM |
| CC[C@H](C)[C@H](NC(=O)CNC(=O)[C@@H](NC(=O)[C@@H](N)Cc1ccccc1)[C@@H](C)CC)C(=O)N[C@@H](CCSC)C(=O)N[C@@H](C)C(=O)N[C@H](C(=O)N[C@@H](CC(C)C)C(=O)N[C@@H](C)C(=O)N[C@@H](CO)C(=O)N[C@@H](CC(C)C)C(=O)N[C@H](C(=O)N[C@H](C(=O)N1CCC[C@H]1C(=O)N[C@@H](CCCCN)C(=O)N[C@@H](CC(C)C)C(=O)N[C@H](C(=O)N[C@@H](CCC(=O)O)C(=O)N[C@@H](CCCCN)C(=O)N[C@H](C(=O)N[C@@H](CCCCN)C(=O)N[C@@H](CCC(N)=O)C(=O)N[C@@H](C)C(=O)N[C@@H](CCCNC(=N)N)C(N)=O)[C@@H](C)CC)[C@@H](C)CC)[C@@H](C)CC)C(C)C)[C@@H](C)O | broth microdilution | ATCC 35218 |  | > 50 µM |
| CCCCCCCCCCCC[S+]([O-])CC1OC(OC2C(N)CC(N)C(OC3OC(CN)C(O)CC3N)C2O)C(O)C(N)C1O (mixture of isomers) |  | BL21(DE3) Eis-expressing |  | > 150 µg/mL |
| Cc1c2oc3c(C)ccc(C(=O)N[C@@H]4C(=O)N[C@H](C(C)C)C(=O)N5[C@H](C(=O)N(C)CC(=O)N(C)[C@@H](C(C)C)C(=O)O[C@@H]4C)[C@@H](O)C[C@@H]5C)c3nc-2c(C(=O)N[C@@H]2C(=O)N[C@H](C(C)C)C(=O)N3CC(=O)C[C@H]3C(=O)N(C)CC(=O)N(C)[C@@H](C)C(=O)O[C@@H]2C)c(N)c1=O | broth microdilution | ATCC 12435 | 16 to 48 h | > 9.45 µg/mL |
| CC(C)C[C@H](NC(=O)[C@H](Cc1ccc(O)cc1)NC(=O)[C@@H]1CCCN1C(=O)[C@H](CCCNC(=N)N)NC(=O)[C@@H]1CCCN1C(=O)[C@H](CCCCN)NC(=O)[C@H](CC(=O)O)NC(=O)[C@@H]1CCCN1C(=O)[C@H](CCCNC(=N)N)NC(=O)C1(N)CCCCC1)C(=O)N1CCC[C@H]1C(=O)N[C@@H](CCCNC(=N)N)C(=O)N1CCC[C@H]1C(=O)N[C@@H](CCCNC(=N)N)C(=O)N1CCC[C@H]1C(=O)N1CCC[C@H]1C(=O)N[C@@H](CCCNC(=N)N)C(=O)N1CCC[C@H]1C(=O)N[C@H](C(=O)N[C@@H](CCCNC(=N)N)C(=O)N[C@@H](CSCc1ccccc1CSC[C@H](NC(=O)[C@H](CCCNC(=N)N)NC(=O)[C@@H](NC(=O)[C@@H]1CCCN1C(=O)[C@H](CCCNC(=N)N)NC(=O)[C@@H]1CCCN1C(=O)[C@@H]1CCCN1C(=O)[C@H](CCCNC(=N)N)NC(=O)[C@@H]1CCCN1C(=O)[C@H](CCCNC(=N)N)NC(=O)[C@@H]1CCCN1C(=O)[C@H](CC(C)C)NC(=O)[C@H](Cc1ccc(O)cc1)NC(=O)[C@@H]1CCCN1C(=O)[C@H](CCCNC(=N)N)NC(=O)[C@@H]1CCCN1C(=O)[C@H](CCCCN)NC(=O)[C@H](CC(=O)O)NC(=O)[C@@H]1CCCN1C(=O)[C@H](CCCNC(=N)N)NC(=O)C1(N)CCCCC1)C(C)C)C(=O)NN)C(=O)NN)C(C)C | bacterial growth | ATCC 25922, 100% Mueller-Hinton broth | 90 min, 37 °C, strain ATCC 25922 | 8.5 ± 0.7 µg/mL |
| CC[C@H](C)[C@H](NC(=O)[C@H](CCCN)NC(=O)[C@H](CC(N)=O)NC(=O)[C@H](Cc1c[nH]c2ccccc12)NC(=O)[C@H](Cc1ccccc1)NC(=O)[C@H](CCCN)NC(=O)[C@H](CCCNC(=N)N)NC(=O)[C@H](CC(C)C)NC(=O)[C@H](Cc1c[nH]c2ccccc12)NC(=O)[C@H](CCCN)NC(=O)[C@H](CCCNC(=N)N)NC(=O)[C@H](CC(C)C)NC(=O)CNC(C)=O)C(=O)N[C@@H](CCCN)C(=O)N[C@@H](CCCNC(=N)N)C(N)=O | broth microdilution | ATCC 25922 |  | 6.25 µM |
| OB(O)c1cnn(-c2cc(Cl)ncn2)c1 | bacterial growth | CTX-M-14 ESBL clinical isolate | cefotaxime alone | 32 µg/mL |
| CCCCCCSCC1OC(OC2C(N)CC(N)C(OC3OC(CN)C(O)CC3N)C2O)C(O)C(N)C1O (centres unmarked) |  | BL21(DE3) Eis-expressing |  | > 150 µg/mL |
| CC[C@H](C)[C@H](NC(=O)[C@H](CO)NC(=O)[C@H](CO)NC(=O)[C@H](Cc1ccccc1)NC(=O)CN)C(=O)N[C@@H](Cc1ccccc1)C(=O)N[C@@H](CCCNC(=N)N)C(=O)NCC(=O)N[C@H](C(=O)N[C@@H](C)C(=O)N[C@@H](CCCCN)C(=O)N[C@@H](Cc1ccccc1)C(=O)N[C@@H](C)C(=O)N[C@@H](CO)C(=O)N[C@@H](CCCCN)C(=O)NCC(=O)N[C@@H](CC(C)C)C(=O)NCC(=O)N[C@@H](CCCCN)C(N)=O)C(C)C |  | ATCC 8739 | pretreated trypsin 0.25 mg/mL | > 128 µM |

Repeated from above:
| Compound | assay | test system | setting | MIC |
| --- | --- | --- | --- | --- |
| CC1C(=NNC(=O)c2ccncc2)C(C)C(c2ccc(Br)cc2)OC1c1ccc(Br)cc1 (centres unmarked) | microbial growth, broth dilution | MTCC443 | 24 h | 12.5 µg/mL |
| CC[C@H](C)[C@H](NC(=O)[C@@H](CCCNC(=N)N)NC(=O)[C@H](CCCNC(=N)N)NC(=O)[C@@H]1CCCN1C(=O)[C@@H]1CCCN1C(=O)[C@H](CCCNC(=N)N)NC(=O)[C@@H]1CCCN1C(=O)[C@H](CCCNC(=N)N)NC(=O)[C@@H]1CCCN1C(=O)[C@H](CC(C)C)NC(=O)[C@H](Cc1ccc(O)cc1)NC(=O)[C@@H]1CCCN1C(=O)[C@@H]1CCCN1C(=O)[C@H](CCCCN)NC(=O)[C@H](Cc1c[nH]c2ccccc12)NC(=O)[C@@H](N)C(C)C)C(=O)N[C@@H](Cc1ccc(O)cc1)C(=O)N[C@@H](CC(N)=O)C(=O)N[C@H](CCCNC(=N)N)C(N)=O | broth microdilution | BW25113 | 18 h | 8 µg/mL |
